Experimental data gathered from unrelated publications.
Lines come from different studies, so protocols differ.
Organism: Mycobacteroides abscessus

| Structure (SMILES) | test | test system | conditions | how to read | quantity | result |
| --- | --- | --- | --- | --- | --- | --- |
| COC1C=COC2(C)Oc3c(C)c(O)c4c(c3C2=O)C2=NC3(CCN(CC(C)C)CC3)NC2=C(NC(=O)C(C)=CC=CC(C)C(O)C(C)C(O)C(C)C(OC(=O)c2cncnc2)C1C)C4=O (stereo not drawn) | – | ATCC 19977 | CAMHB | – | IC50 | 17 nM |
| CO[C@H]1/C=C/O[C@@]2(C)Oc3c(C)c(O)c4c(c3C2=O)C2=NC3(CCN(CC(C)C)CC3)NC2=C(NC(=O)/C(C)=C\C=C\[C@H](C)[C@H](O)[C@@H](C)[C@@H](O)[C@@H](C)[C@H](OC(=O)c2cccnc2)[C@@H]1C)C4=O | – | ATCC 19977 | – | reference: wild type over arr deletion | MIC ratio | 0.9 |
| CN[C@@H]1[C@H](O)[C@H](NC)[C@H]2O[C@]3(O)[C@H](O[C@@H]2[C@H]1O)O[C@H](C)C[C@@]3(O)CNCCc1cccs1 | LC-MS/MS, measured: intracellular compound | ATCC 19977 | 100 µM, 30 min | reference: compound over spectinomycin | intracellular accumulation ratio | 8.3 fold |
| CO[C@H]1/C=C/O[C@@]2(C)Oc3c(C)c(O)c4c(c3C2=O)C2=NC3(CCN(CC(C)C)CC3)NC2=C(NC(=O)/C(C)=C\C=C\[C@H](C)[C@H](O)[C@@H](C)[C@@H](O)[C@@H](C)[C@H](OC(=O)c2cccc(F)c2)[C@@H]1C)C4=O | – | ATCC 19977 wild type | 90% growth inhibition | – | MIC | 0.055 µM |
| CN[C@@H]1[C@H](O)[C@H](NC)[C@H]2O[C@]3(O)[C@H](O[C@@H]2[C@H]1O)O[C@H](C)C[C@@]3(O)CNCCc1ccc(C)cc1 | microbial growth | ATCC19977 | 5 days | – | MIC | 4 µg/mL |
| CCCCCCCCCC1N=C(N)N=C(N)N1c1ccccc1C.Cl (racemic) | OD600 | – | 50 µM | reference: untreated | growth reduction | 40 fold |
| COC1C=COC2(C)Oc3c(C)c(O)c4c(c3C2=O)C2=NC3(CCN(CC(C)C)CC3)NC2=C(NC(=O)C(C)=CC=CC(C)C(O)C(C)C(O)C(C)C(OC(=O)Nc2cccnn2)C1C)C4=O (stereo not drawn) | intracellular bacterial growth | THP-1 derived macrophages, ATCC 19977 | – | – | IC50 | 40 nM |
| CN[C@@H]1[C@H](O)[C@H](NC)[C@H]2O[C@]3(O)[C@H](O[C@@H]2[C@H]1O)O[C@H](C)C[C@@]3(O)CNCCc1ccc(F)cc1 | RNA sequencing | ATCC 19977 | 1 µg/mL, 3 h, unit not given | reference: untreated | whiB7 regulon DEGs | 92 |
| CO[C@H]1/C=C/O[C@@]2(C)Oc3c(C)c(O)c4c(c3C2=O)C2=NC3(CCN(CC(C)C)CC3)NC2=C(NC(=O)/C(C)=C\C=C\[C@H](C)[C@H](O)[C@@H](C)[C@@H](O)[C@@H](C)[C@H](OC(=O)c2nccs2)[C@@H]1C)C4=O | – | ATCC 19977 wild type | 90% growth inhibition | – | MIC | 0.017 µM |

Some of these lines once more:
| Structure (SMILES) | test | test system | conditions | how to read | quantity | result |
| --- | --- | --- | --- | --- | --- | --- |
| CN[C@@H]1[C@H](O)[C@H](NC)[C@H]2O[C@]3(O)[C@H](O[C@@H]2[C@H]1O)O[C@H](C)C[C@@]3(O)CNCCc1ccc(C)cc1 | microbial growth | ATCC19977 | 5 days | – | MIC | 4 µg/mL |
